Published values collected from several papers.
Each numbered part is a random draw from the data of one study; scales do not carry over between parts. Substitutions count along the parent as printed.

Sample 1
Target: Hepatocyte nuclear factor 3-alpha (Foxa1, Mus musculus, UniProt P35582, residues 1-468, full length assumed)
Technique: EMSA with sequencing
Form: double-stranded DNA, one strand shown
Sample: in vitro
Tested at: 10 and 20 nM
Setting: whole designed probe, mean of two concentrations, ends assumed
Relative to: negative control set to 0
Direction: higher = stronger binding
Construct (chain): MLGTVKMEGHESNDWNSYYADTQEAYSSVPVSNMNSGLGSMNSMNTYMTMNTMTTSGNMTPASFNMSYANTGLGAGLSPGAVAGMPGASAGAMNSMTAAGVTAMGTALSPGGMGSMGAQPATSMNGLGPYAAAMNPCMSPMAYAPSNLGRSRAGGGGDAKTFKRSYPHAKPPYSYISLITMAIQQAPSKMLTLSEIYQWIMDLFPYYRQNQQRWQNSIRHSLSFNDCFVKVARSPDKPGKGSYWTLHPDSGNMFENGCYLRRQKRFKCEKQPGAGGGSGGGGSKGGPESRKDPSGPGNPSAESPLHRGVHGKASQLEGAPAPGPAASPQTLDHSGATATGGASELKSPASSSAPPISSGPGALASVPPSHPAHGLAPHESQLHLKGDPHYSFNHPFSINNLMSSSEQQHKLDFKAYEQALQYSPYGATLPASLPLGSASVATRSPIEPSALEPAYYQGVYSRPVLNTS
`GTGAGCGGTGCCCATTGATGGGGAACTCAGGTTGCAGTGAGCTCTGATCGTGCCACTGCACTCCAGCCTGTGACACAGAGCAAGGGCCTGTCTCTAAAAACAAAACAAAACAAAGCAAAACAAACATGAGAAGTGCTGATTGTTACCTTGCAAAGAGGTTTCATTCGGCAGCAAGTTGAAATTATCTACTGGTTTGTACAACAGCTAGCACTTCCTCTTTTTCACTGGGATCGTGGGGAC`: “normalised bound fraction” 0.563 ratio.
Under “normalised bound fraction”, `GTGAGCGGTGCCCATTGATGGGGAACCTTTCGAAATGCTTTAGCTTTAATAGTTGAGATTGCAGTAAATAATACATTTTTTTGTACCTTAAGCAAATAGAGTCTTAAAAAATGTCAGTGTAAACATGTAAATCAAAGATAGAAAACCAAATAACAAAATAAAAGTATATCATACTTGCATTGGGAAAGAGGCATATATGTATATAGGAACTATGGTAGTTTTCACTGGGATCGTGGGGAC` is recorded as 0.385 ratio.
Under “normalised bound fraction”, `GTGAGCGGTGCCCATTGATGGGGAACATCTTCCCCCTCTTCCTTGCCCCACCAGCTCACCTACGGGGGTTATTTGCAGATAGGAAAATAAATAAAGCCGGCATTCGTTAACCCTCTTCTGGCGCAAACTGCTGTTTGCTCTGGATCTAACATGGTCCTTTGGCGACGCCAGGCTCCGGGAGAGCAAAGCACCGTGTCAGGGCCATGATCCGGGCTCGCCTTTCACTGGGATCGTGGGGAC` is recorded as 0.336 ratio.
For `GTGAGCGGTGCCCATTGATGGGGAACTGATGAGAAACATGATAATTATTTAGTCTGAAAGGATCTTCTCCAATAATTTTTTTTTTCTCCACCCCCGTCGTGATACATTCCTGACTAAATGCAAACAAACCTAAATTGAGGGAAATTCTATGCAATACCTAACCATTATTCATCAAATGTACACAGGAGTACAGTGACACAATCATGGTTCACTGTAACCTTTCACTGGGATCGTGGGGAC`, “normalised bound fraction” read 0.306 ratio.

Sample 2
Target: Sal-like protein 4, full length isoform A (SALL4, Homo sapiens, UniProt Q9UJQ4, residues 1-1053)
UniProt Q9UJQ4, sequence (whole entry, looked up): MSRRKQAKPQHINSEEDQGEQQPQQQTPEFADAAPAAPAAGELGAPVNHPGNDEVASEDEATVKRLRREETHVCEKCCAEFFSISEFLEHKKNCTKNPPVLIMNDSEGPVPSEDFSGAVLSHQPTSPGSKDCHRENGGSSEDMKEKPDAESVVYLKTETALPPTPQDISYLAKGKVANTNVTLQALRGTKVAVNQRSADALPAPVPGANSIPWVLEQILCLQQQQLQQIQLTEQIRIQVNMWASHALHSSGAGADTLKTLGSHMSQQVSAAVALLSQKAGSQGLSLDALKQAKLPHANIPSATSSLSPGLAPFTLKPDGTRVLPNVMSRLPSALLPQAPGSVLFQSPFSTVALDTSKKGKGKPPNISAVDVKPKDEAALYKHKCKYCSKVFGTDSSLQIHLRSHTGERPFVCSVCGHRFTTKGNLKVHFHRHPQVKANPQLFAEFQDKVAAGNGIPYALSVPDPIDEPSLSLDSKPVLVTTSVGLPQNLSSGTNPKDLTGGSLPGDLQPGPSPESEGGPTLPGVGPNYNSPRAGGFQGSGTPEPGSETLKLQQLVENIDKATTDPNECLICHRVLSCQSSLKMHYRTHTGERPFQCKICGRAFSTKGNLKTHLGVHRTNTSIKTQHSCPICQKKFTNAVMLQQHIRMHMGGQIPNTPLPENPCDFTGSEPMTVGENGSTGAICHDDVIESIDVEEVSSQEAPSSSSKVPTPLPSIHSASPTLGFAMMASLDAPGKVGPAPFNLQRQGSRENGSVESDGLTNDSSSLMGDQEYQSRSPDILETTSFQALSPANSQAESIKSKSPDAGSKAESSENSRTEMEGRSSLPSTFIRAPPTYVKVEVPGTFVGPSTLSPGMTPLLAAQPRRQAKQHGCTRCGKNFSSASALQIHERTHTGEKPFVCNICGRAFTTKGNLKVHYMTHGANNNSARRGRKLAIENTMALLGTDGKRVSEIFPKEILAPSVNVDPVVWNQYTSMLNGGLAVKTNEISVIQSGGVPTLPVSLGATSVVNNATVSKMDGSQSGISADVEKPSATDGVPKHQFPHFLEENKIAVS
Technique: universal PBM
Form: double-stranded DNA, one strand shown
Sample: in vitro
Tested at: 600 nM
Setting: 8-mer, flanks averaged, mean of replicates
Direction: higher = stronger binding
With `AATCGCAC` the E-score was 0.127.
For `AGTCCCGA`, the E-score was -0.231.
For `ACAGCCTC`, the E-score was -0.244.
The E-score of `TGATGCCA` is reported as 0.0495.
`CTCCATAC` has an E-score of -0.0765.
With `CAGTGGGA` the E-score was -0.283.
With `ACATGGAC` the E-score was 0.0704.
`AGTACTCA` has an E-score of 0.124.
The E-score of `GAACCAAC` is reported as -0.0278.
`ACCATTCG` gave an E-score of 0.0311.
`CAGGAATC` has an E-score of 0.0687.
`GGCACAGA` gave an E-score of -0.246.
For `ACGATTAC`, the E-score was 0.0548.
The E-score of `AAGGAAAA` is reported as 0.228.
`GCCCTGAA` has an E-score of -0.0905.
`ATCAGCAT` gave an E-score of 0.126.
For `ACAAAACT`, the E-score was 0.156.
The E-score of `CGACCAGC` is reported as -0.233.
For `GTACGGCA`, the E-score was -0.136.
With `ATGTTGTG` the E-score was 0.228.
For `AATGCAGG`, the E-score was -0.0464.
`ATGCCTAA` gave an E-score of 0.157.
`CGTTCCTA` has an E-score of 0.0841.
`ACTCATCA` gave an E-score of -0.00756.
For `ACCCGTCG`, the E-score was -0.333.

Sample 3
Target: RNA binding protein fox-1 homolog 2, RRM domain, GST-SBP tag (RBFOX2, Homo sapiens, UniProt O43251-10, residues 100-194)
Technique: RNA Bind-n-Seq
Form: RNA
Sample: in vitro
Tested at: 365 nM
Setting: natural RNA segment, single round, ends assumed
Relative to: no-protein control
Direction: higher = stronger binding
Constant ends, left off below: GGGAGUUCUACAGUCCGACGAUC … UGGAAUUCUCGGGUGCCAA
Target sequence (chain): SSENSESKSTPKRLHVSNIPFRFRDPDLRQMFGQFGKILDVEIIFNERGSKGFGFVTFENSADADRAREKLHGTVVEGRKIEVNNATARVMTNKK
For `UGCUUGAUUCAAAACUGUGGAAACCAGAUCUGUUUAGUCUCCUGUUUGUAUGCGUUUGCUAAUGGUAGCUAAAUAACCAGUUUUUGUUGUAAAUGCACCAAUUCUGAAGG`, “RBNS enrichment (R)” read 1.18.
`CUCCUGUUUUGCAACCAGGAUGAGGACCCCUCCAUCUCCGUGGAUUACUGAGGGGGGCUCUUGCUUUAUGCGAUGCUGCCUUAUUUCCUUUAGGGUACUGUCCUGGUCAA`: “RBNS enrichment (R)” 0.3.
`UGGAAUUGUUGGAAGAAGAGUUUGCAGAAGGUUAGGAAUGGGUAGAUAGCUAAGUCCUAAUCUAUGGGUACAUUGUUGUGUCCCAAACCAAAAUUUUCCUUAUCCACAAU` — result for “RBNS enrichment (R)”: 0.351.
`UACUGUUUCAGAGUUGAGAGUUGGUGGUGCAAAUAUGUAUAUAAUGAACUGUAUUUUUACAAUGAUCGCCGCAUGACUAUUUCACACCCUUUUUAUACUCCAUAUCUGUC`: “RBNS enrichment (R)” 2.6.
`ACCUAGUGAUUAAUUGGCUGAGAAAACCCUGGAGUGGAGGGAGGCUCAGAGAUACUGAUAUGGAUGUGGGAGGGCUCUAAAGUUAGAGGUCACCAACUCCACAGAUGAAA` — result for “RBNS enrichment (R)”: 0.621.
For `UUCUAAACAAUAAAAGGGCACCUGGAAUUUUCAGAACAUUAAAAAACUGAAACCACUUAGAAGAAAAGAAGAAACCUAAAUGUCUGUGGAAGUGAUCAGUAUUAAGUGGG`, “RBNS enrichment (R)” read 0.464.
`CCGCAGUGGCUAUCCUAGUGUACAUUCUCCUGGAGAGCAGCUUCUGUGGCUGAAUCAGGUGUCCAGGUGAAGACAGGCCCUGUCCUGGAACCUGGAAUCACACAUACCUC` — result for “RBNS enrichment (R)”: 0.209.
Under “RBNS enrichment (R)”, `AUGCUUCGCUCCAUGGUAUGGGUGGACACCUACACUUGUCAGUAGCAGUCUUAAACUCCUCACUGCCAGGCAGGGGUGGGCUUCUGUAGGAUUUAGUGCCUGAACAUUUC` is recorded as 0.327.
Under “RBNS enrichment (R)”, `UGGCUAACAUCCAUAUGUAUAUAUCUUAUUUAUAAAUAAAAAUUGUAAAUGUCAGUUUCGGUAUCCCACAAAAAAGCCUGUCUCCGGCGUCUGUGGGGAAUCUCAGCAUU` is recorded as 2.31.
`AACUUCAAAGCUUUAUUCUGUCUGCCUGAGAGGAUCCAUGGAAGAUGAUUCUCCCAAAAAGCAGAAAAAGAAAUGUCAGGUUAGAAGGACCCAAGUUCUAGGUGCACACU`: “RBNS enrichment (R)” 0.407.
`AUAUAGUGUGUGUACAUCUUUCGAUGAUAUAAAUUUAUUUGGGCGUGACUGUUUUAAAACACCAUAAUGAAUGUAUAAUUAAUUUAUGUUCAAGUAUUAAUAUUGUUACA` — result for “RBNS enrichment (R)”: 0.79.
`AGAACUGACUUCUGAAACGAAGAGAAAAGCACCUAUGGAUCCCACUCCUUCCCAUCGCUUACCUGUUCCCCAGCUCCCCGUUGACCCACCCUGGUAGAUUAGCCAGCUGU` — result for “RBNS enrichment (R)”: 0.605.

Sample 4
Target: CCNE2, cyclin fold, Cln2 fusion (human)
Technique: yeast growth competition, sequencing
Sample: yeast
Setting: strong parent motif
Relative to: not given
Direction: higher = stronger binding
Starting sequence: REPIN1 docking peptide (human); QSFRGWVALVLHL
For `W6A`, “normalised enrichment score” read 0.547.
`H12A` — result for “normalised enrichment score”: 0.627.
`Q1A`: “normalised enrichment score” 0.638.
`G5A` — result for “normalised enrichment score”: 1.42.
For `V7A`, “normalised enrichment score” read 1.64.
`L11A` — result for “normalised enrichment score”: 1.05.

Sample 5
Target: ATF7, bZIP domain (human)
Technique: DHFR protein complementation
Sample: yeast
Setting: single substitutions, most at no-binding floor
Relative to: wild-type JUN-FOS pair
Direction: higher = stronger binding
Starting sequence: JUN, bZIP domain (human); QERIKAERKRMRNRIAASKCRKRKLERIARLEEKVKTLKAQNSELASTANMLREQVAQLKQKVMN; partner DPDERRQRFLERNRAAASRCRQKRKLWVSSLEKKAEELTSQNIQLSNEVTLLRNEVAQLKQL
The binding fitness of `Q41A` is reported as -1 natural log.
For `R30M`, the binding fitness was -0.678 natural log.
For `I28T`, the binding fitness was -1.16 natural log.
`Q55W` gave a binding fitness of -1.37 natural log.
With `L31S` the binding fitness was -1.52 natural log.
With `L31E` the binding fitness was -1.48 natural log.
`M51R` has a binding fitness of -0.886 natural log.
`V35G` gave a binding fitness of -1.47 natural log.
With `E44C` the binding fitness was -1.17 natural log.

Sample 6
Target: ABI1, truncated, D143A, DHFR fusion (Arabidopsis thaliana)
Technique: DHFR PCA, deep sequencing
Sample: yeast
Setting: methotrexate growth selection, single substitutions
Together with: (+)-ABA 0 µM
Relative to: wild-type fitted maximum
Direction: higher = stronger binding
Starting sequence: PYL1, truncated, DHFR fusion (Arabidopsis thaliana); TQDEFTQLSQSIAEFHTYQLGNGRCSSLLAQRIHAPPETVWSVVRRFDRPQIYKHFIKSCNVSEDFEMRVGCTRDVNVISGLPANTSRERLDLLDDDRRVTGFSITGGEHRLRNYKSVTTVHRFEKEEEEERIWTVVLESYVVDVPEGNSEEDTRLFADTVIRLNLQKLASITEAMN
`D95F`: “relative binding score” -14.6%.
`D95H` — result for “relative binding score”: -1.98%.
Under “relative binding score”, `D75V` is recorded as 28.7%.
Under “relative binding score”, `V121L` is recorded as 5.2%.
Under “relative binding score”, `H110A` is recorded as 35.6%.
`Q7A`: “relative binding score” 31.6%.
Under “relative binding score”, `N114W` is recorded as -1.52%.
For `F5E`, “relative binding score” read 6.46%.
`F103P` — result for “relative binding score”: 0.963%.
`D65L`: “relative binding score” 1.17%.
`T1D`: “relative binding score” 26.8%.
Under “relative binding score”, `E128A` is recorded as 27.4%.
Under “relative binding score”, `E151C` is recorded as 11%.
For `T6G`, “relative binding score” read 23.6%.

Sample 7
Target: Histone acetyltransferase KAT6A, winged helix 1, GST fusion (KAT6A, Homo sapiens, UniProt Q92794, residues 1-85)
Technique: protein binding microarray
Form: double-stranded DNA, one strand shown
Sample: in vitro
Tested at: not given
Setting: 8-mer, flanks averaged, mean of 2 arrays, mostly near background
Relative to: not given
Direction: higher = stronger binding
Construct (chain): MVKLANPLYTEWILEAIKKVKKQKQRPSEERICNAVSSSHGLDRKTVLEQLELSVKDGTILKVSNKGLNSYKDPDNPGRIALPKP
With `GTAGCAAC` the E-score was -0.0665.
`AGTATACC` gave an E-score of -0.0673.
With `CCACCTTA` the E-score was -0.216.
`AACTCCCA` gave an E-score of -0.108.
`CACCCGCA` gave an E-score of 0.212.
The E-score of `ATTAACAG` is reported as -0.0267.
For `CCCCCCCA`, the E-score was -0.176.
With `ATTTGTGA` the E-score was -0.123.
The E-score of `CCCCAAAG` is reported as -0.271.
`AACCCGTT` gave an E-score of 0.267.
`CAAGCGCG` gave an E-score of 0.379.
`CGCTTGGC` gave an E-score of 0.297.
`CAGGGCAA` gave an E-score of -0.115.
`CGTATTCC` has an E-score of 0.0292.
`CTTAACCA` gave an E-score of -0.214.
`CCGTACGA` has an E-score of 0.141.
With `AGGGATTG` the E-score was -0.06.
